Published values gathered from unrelated publications.
± marks the error that the study gave.
lasR: Transcriptional activator protein LasR (lasR, Pseudomonas aeruginosa, UniProt P25084)
OXA-58: Beta-lactamase OXA-58 (OXA-58, Acinetobacter baumannii, UniProt Q2TR58)
HDAC8: Histone deacetylase 8 (HDAC8, Homo sapiens, UniProt Q9BY41)
Orco: Orco (Drosophila melanogaster, UniProt Q9VNB5)
HDAC6: Protein deacetylase HDAC6 (HDAC6, Homo sapiens, UniProt Q9UBN7)
MAPK8: Mitogen-activated protein kinase 8 (MAPK8, Homo sapiens, UniProt P45983)

By UniProt entry, the sequences of proteins in these tests, tags left out. Chains listed by the source or under a name are the forms on record and can include a tag or linker. Residues count along the entry.
UniProt P25084, whole entry: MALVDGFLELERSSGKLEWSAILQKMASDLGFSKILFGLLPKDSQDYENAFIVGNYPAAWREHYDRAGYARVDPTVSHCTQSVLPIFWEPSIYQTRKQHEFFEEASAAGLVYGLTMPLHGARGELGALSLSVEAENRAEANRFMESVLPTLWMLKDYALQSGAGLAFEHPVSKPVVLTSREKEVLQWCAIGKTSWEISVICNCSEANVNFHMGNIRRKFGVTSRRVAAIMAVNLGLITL
UniProt P25084, 1-173 limits assumed: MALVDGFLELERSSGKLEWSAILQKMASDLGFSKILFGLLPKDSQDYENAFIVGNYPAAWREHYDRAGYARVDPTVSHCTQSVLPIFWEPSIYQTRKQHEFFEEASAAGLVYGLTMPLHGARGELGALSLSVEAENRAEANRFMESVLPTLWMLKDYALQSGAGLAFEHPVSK
UniProt Q2TR58, 19-280 limits assumed: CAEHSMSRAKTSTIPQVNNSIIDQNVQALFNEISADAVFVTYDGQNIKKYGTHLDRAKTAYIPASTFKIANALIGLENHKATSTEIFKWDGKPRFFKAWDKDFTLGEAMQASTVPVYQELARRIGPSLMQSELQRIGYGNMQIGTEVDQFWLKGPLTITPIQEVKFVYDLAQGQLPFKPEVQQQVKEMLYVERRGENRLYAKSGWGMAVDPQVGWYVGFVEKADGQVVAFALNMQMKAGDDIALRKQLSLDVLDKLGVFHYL
UniProt Q9BY41, whole entry: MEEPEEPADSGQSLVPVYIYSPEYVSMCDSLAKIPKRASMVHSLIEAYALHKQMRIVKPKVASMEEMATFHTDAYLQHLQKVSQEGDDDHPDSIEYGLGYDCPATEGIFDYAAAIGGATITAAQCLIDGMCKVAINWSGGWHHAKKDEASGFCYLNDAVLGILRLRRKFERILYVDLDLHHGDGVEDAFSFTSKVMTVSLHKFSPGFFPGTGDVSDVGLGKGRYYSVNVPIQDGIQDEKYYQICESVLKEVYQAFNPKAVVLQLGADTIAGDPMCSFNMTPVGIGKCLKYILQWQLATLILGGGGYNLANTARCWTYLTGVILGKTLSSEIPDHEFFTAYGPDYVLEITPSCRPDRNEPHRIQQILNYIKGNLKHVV
UniProt Q9VNB5, whole entry: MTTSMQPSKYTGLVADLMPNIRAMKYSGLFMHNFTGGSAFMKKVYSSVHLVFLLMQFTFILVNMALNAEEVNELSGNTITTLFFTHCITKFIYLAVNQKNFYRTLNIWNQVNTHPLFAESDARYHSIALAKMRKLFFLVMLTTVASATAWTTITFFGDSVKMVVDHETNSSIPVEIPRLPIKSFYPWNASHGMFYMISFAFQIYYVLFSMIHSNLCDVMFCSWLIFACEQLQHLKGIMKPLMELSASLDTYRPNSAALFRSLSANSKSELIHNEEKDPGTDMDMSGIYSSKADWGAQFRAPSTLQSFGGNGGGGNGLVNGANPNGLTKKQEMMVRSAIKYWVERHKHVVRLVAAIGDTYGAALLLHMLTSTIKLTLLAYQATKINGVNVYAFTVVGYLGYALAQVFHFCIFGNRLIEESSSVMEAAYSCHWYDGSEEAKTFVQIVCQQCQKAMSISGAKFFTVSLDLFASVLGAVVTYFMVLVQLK
UniProt P45983, 1-384 isoform 3: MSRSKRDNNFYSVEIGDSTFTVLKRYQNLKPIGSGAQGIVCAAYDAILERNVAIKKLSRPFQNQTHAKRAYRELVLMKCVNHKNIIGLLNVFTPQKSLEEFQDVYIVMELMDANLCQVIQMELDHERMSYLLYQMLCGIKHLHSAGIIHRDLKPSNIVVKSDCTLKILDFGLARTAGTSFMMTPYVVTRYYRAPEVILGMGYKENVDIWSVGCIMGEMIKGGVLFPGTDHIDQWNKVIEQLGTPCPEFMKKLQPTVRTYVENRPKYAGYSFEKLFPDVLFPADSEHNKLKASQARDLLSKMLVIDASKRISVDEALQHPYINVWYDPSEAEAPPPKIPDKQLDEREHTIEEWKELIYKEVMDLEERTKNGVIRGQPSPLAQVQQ
UniProt P09958, 108-715 limits assumed: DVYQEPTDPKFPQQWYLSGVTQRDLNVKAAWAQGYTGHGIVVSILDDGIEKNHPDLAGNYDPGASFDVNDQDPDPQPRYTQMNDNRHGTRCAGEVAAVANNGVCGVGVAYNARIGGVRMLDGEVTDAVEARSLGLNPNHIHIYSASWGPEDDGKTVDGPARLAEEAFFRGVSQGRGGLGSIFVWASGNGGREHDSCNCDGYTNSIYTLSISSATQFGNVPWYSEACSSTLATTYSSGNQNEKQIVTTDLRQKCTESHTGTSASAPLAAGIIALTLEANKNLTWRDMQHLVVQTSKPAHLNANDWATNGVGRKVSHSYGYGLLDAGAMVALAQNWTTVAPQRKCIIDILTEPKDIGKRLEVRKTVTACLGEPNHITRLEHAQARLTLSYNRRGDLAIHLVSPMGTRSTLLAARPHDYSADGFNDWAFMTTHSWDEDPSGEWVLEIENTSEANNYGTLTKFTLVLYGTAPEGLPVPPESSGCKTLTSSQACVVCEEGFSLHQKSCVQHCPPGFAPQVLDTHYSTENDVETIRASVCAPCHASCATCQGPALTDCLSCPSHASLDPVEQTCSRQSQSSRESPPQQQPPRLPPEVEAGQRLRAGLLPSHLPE
UniProt P17787, 26-502 limits assumed: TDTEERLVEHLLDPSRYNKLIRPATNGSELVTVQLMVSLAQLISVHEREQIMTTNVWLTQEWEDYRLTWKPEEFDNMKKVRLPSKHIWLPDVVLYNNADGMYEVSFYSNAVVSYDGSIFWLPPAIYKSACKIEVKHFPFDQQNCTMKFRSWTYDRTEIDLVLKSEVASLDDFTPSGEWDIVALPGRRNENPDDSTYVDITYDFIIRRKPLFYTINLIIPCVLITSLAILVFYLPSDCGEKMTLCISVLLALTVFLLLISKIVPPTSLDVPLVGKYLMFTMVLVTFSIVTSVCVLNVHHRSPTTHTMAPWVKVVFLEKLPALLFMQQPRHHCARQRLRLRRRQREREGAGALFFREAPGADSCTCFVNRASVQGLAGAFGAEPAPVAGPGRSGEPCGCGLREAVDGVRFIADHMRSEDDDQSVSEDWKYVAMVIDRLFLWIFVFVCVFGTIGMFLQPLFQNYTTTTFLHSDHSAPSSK
UniProt P14867, whole entry, looked up: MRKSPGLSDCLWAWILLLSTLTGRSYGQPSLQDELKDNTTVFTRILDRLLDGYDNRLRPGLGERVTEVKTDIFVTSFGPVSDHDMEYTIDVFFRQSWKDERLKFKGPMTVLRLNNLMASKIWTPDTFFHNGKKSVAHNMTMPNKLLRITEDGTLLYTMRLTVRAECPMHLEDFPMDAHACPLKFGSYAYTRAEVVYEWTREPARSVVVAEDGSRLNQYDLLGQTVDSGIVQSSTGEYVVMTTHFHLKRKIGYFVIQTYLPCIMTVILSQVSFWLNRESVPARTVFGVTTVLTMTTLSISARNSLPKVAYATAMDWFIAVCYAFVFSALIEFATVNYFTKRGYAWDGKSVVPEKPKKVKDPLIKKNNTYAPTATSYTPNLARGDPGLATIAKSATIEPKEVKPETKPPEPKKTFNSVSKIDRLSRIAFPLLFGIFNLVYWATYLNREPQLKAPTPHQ
UniProt P03420, 26-109 partner limits assumed: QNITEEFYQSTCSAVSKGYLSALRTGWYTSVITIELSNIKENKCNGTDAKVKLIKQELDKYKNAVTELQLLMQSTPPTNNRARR
UniProt P03420, 137-513 with tags or gaps I379V/M447V/S155C/S190F/S290C/V207L limits assumed: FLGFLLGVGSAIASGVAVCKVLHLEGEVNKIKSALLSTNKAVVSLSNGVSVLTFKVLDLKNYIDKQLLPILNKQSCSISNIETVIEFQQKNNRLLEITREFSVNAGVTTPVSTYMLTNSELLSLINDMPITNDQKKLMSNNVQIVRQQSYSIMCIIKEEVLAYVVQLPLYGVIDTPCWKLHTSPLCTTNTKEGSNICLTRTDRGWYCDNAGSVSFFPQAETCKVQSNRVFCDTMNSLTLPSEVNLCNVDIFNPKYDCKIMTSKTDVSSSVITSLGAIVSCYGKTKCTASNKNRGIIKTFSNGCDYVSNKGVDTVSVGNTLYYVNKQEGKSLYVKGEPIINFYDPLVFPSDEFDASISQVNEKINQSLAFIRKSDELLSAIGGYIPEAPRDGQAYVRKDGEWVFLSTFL
UniProt P17706, whole entry: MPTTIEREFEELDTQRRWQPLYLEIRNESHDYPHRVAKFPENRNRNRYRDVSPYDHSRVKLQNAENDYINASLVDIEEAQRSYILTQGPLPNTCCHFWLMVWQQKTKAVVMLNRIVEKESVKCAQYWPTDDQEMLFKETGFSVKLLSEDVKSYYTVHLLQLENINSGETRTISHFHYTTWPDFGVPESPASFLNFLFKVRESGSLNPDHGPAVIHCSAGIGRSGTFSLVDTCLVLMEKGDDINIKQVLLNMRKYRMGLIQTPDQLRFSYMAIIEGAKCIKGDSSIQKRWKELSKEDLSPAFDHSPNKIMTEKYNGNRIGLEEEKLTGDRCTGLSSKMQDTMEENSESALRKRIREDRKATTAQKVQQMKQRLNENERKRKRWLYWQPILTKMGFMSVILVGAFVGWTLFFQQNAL
UniProt C7C422, 36-270 M154L/A233V limits assumed: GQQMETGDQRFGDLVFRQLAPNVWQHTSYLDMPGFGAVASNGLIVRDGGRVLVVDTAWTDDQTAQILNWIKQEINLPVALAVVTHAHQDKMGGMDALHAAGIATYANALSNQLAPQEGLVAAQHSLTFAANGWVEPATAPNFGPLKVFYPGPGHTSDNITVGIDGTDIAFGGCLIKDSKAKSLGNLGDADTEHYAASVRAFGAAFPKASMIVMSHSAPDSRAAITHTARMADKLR
UniProt P22303, 32-614 limits assumed: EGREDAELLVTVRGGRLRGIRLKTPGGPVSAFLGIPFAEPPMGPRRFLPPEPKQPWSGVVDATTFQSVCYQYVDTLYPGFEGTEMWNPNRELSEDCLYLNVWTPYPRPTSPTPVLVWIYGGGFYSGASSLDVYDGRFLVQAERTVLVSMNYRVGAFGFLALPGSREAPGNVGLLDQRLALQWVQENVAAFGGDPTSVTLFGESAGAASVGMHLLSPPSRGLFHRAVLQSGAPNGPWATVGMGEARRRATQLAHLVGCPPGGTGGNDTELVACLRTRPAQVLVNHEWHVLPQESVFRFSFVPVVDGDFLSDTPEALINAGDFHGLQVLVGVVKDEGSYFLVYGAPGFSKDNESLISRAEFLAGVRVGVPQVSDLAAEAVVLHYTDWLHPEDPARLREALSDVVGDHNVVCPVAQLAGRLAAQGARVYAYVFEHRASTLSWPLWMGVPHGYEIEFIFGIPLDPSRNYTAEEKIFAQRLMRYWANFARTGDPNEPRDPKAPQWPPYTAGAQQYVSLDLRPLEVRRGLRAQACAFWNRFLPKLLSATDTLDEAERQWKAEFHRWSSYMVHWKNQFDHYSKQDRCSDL
UniProt P01106, whole entry: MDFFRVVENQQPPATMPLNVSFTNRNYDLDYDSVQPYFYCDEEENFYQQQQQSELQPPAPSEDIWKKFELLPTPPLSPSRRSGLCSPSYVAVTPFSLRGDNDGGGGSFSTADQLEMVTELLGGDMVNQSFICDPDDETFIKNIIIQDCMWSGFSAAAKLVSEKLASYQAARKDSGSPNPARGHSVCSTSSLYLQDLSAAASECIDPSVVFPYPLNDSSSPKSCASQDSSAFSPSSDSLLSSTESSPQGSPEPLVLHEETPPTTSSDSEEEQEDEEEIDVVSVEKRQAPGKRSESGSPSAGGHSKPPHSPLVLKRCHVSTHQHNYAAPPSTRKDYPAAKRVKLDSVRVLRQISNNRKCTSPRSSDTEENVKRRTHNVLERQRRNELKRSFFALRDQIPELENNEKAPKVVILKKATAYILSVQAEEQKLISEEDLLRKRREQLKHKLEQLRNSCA
UniProt P35869, whole entry, looked up: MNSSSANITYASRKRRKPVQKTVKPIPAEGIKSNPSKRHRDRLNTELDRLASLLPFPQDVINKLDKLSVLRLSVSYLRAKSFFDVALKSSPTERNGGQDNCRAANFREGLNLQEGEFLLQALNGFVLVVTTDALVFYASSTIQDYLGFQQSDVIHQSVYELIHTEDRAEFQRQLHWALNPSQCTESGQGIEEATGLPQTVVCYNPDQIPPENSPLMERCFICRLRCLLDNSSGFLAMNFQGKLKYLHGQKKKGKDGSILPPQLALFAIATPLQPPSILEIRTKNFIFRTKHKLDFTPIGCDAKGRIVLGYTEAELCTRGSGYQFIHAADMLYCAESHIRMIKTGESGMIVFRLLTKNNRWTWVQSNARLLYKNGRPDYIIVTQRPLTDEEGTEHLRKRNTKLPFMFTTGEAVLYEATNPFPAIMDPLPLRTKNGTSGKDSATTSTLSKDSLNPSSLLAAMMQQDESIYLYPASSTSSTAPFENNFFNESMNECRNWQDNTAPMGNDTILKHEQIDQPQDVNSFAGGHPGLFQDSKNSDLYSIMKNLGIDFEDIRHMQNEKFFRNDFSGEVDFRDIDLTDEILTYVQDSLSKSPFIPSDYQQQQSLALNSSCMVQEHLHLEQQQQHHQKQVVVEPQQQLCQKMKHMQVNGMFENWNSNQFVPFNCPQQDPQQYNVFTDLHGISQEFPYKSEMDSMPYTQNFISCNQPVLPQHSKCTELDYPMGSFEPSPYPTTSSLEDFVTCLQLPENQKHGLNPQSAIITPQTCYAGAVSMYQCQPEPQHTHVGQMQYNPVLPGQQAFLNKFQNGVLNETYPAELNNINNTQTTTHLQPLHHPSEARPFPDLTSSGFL

| Compound | target | assay | test system | conditions | scale | endpoint | result |
| --- | --- | --- | --- | --- | --- | --- | --- |
| CC(=O)Oc1c(Br)cc(Br)cc1CNC(=O)c1ccccc1[N+](=O)[O-] | lasR | reporter gene, agonist | Escherichia coli JLD271 lasI-lacZ reporter | – | baseline: OdDHL | maximum efficacy | 96% |
| COc1ccc2c(c1)c(CC(=O)NCCCCNC(=O)CCC(=O)OC1c3cc4c(cc3C(c3cc(OC)c(OC)c(OC)c3)C3C(=O)OCC13)OCO4)c(C)n2C(=O)c1ccc(Cl)cc1 (centres unmarked) | Prostaglandin G/H synthase 2 (Ptgs2, Mus musculus, UniProt Q05769, R106Q) | enzyme activity, inhibitor | – | – | baseline: mutant R120Q over wild type | potency increase | 3 fold |
| O=C(O)c1ccc(-c2cccc(C(=O)O)c2)cc1 | OXA-58 | enzyme activity, inhibitor | – | – | – | ligand efficiency | 0.33 |
| CC(=O)NCCCC[C@H](NC(C)=O)C(N)=O | HDAC8 | deacetylation, substrate | – | 25 °C, added: 150 nM enzyme | – | kcat | 0.011 ± 0.003 s⁻¹ |
| CC1(C)Oc2cc(C(=O)c3csc4ccccc34)cc(O)c2[C@@H]2C[C@H](O)CC[C@H]21 | Cannabinoid receptor 2 (Cnr2, Mus musculus, UniProt P47936) | covalent photolabelling, UV photolabelling, then [3H]CP-55,940 saturation binding | HEK293 cell membranes | 10 x Ki, 30 min incubation, 1 h irradiation, 37 °C, UV 365 nm | baseline: control | Bmax reduction | 67% |
| O=C(NCc1cc(Br)cc(Br)c1OC(=O)c1ccccc1[N+](=O)[O-])c1ccccc1Cl | lasR | reporter gene, agonist | Escherichia coli JLD271 lasI-lacZ reporter | – | baseline: OdDHL | maximum efficacy | 101% |
| O=C(CC1CCCC1)NC1CCN(c2ncnc3c2nc(-c2ccccc2Cl)n3-c2ccc(Cl)cc2)CC1 | Cannabinoid receptor 1 (CNR1, Homo sapiens, UniProt P21554) | calcium mobilization, antagonist, FLIPR | CHO-K1 with Gαq16 | added: CP55940 | – | Ke | 3 nM |
| C=CCN1CC[C@]23c4c5ccc(O)c4O[C@H]2[C@H](NC(=O)c2ccc(N=[N+]=[N-])c([125I])c2)CC[C@@]3(O)[C@H]1C5 | Mu-type opioid receptor (Oprm1, Mus musculus, UniProt P42866) | binding | CHO cell membranes | 0 °C | – | slowly dissociating fraction | 83% |
| O=c1ccn([C@@H]2O[C@H](COP(=O)(O)OP(=O)(O)OP(=O)(O)O)[C@@H](O)[C@]2(F)Br)c(=O)[nH]1 | Genome polyprotein, NS5B polymerase (Hepatitis C virus genotype 1b, UniProt Q9WMX2, S2701T) | polymerase activity, inhibitor | Hepatitis C virus, genotype 1b | – | baseline: genotype 1b wild type | IC50 fold change | 70 |
| O=C(Oc1c(Br)cc(Br)cc1CNC(=O)c1ccccc1[N+](=O)[O-])c1ccc(Cl)cc1 | lasR | reporter gene, agonist | Escherichia coli JLD271 lasI-lacZ reporter | – | baseline: OdDHL | maximum efficacy | 94% |
| CCn1c(SCC(=O)Nc2ccc(C(C)C)cc2)nnc1-c1cnn(C)c1 | Orco | calcium mobilization, agonist | HEK293 expressing Drosophila Orco | – | baseline: VUAA1 | efficacy | 34% |
| O=S(=O)(O)c1ccc(-c2ccc(S(=O)(=O)O)cc2)cc1 | OXA-58 | enzyme activity, inhibitor | – | – | – | ligand efficiency | 0.44 |
| CC(=O)NCCCC[C@H](NC(=O)[C@H](CCCCNC(C)=O)NC(=O)[C@H](Cc1c[nH]cn1)NC(=O)[C@H](CCCNC(=N)N)NC(C)=O)C(N)=O | HDAC6 | deacetylation, substrate | – | 25 °C, added: 10 to 50 nM enzyme | – | kcat | 0.23 ± 0.03 s⁻¹ |
| COc1ccc(CN[C@@H]2CO[C@H](C(c3ccccc3)c3ccccc3)C[C@H]2O)cc1 | Beta-2 adrenergic receptor (ADRB2, Homo sapiens, UniProt P07550) | radioligand binding, radioligand displacement | – | 10 µM | – | inhibition | -3.8% |
| CC(C)C[C@H](NC(=O)[C@H](C)NC(=O)[C@H](CCCNC(=N)N)NC(=O)[C@H](CCCNC(=N)N)NC(=O)[C@H](Cc1cnc[nH]1)NC(=O)[C@H](CCCNC(=N)N)NC(=O)[C@H](CO)NC(=O)[C@H](CO)NC(=O)c1ccccc1N)C(=O)N[C@@H](CC(=O)O)C(=O)N[C@H](C(=O)N[C@@H](CCC(N)=O)C(=O)NCCNc1ccc([N+](=O)[O-])cc1[N+](=O)[O-])[C@@H](C)O | Furin (FURIN, Homo sapiens, UniProt P09958) | substrate | – | pH 7 | – | Km | 4.16 µM |
| O=C(OCC1CCCN(C(=O)CCc2ccccc2)C1)c1ccccc1-c1ccccc1 (centres unmarked) | Neuronal acetylcholine receptor; alpha4/beta2 (Homo sapiens, UniProt P17787+P43681) | receptor inhibition, negative allosteric modulator | – | cell-based | baseline: amide over non-carbonyl analog | potency fold increase | 2.4 |
| O=C1NC(=O)C2(Cc3ccccc32)N1 (racemic) | GABA-A receptor alpha-1/beta-3 (GABRA1/GABRB3, Homo sapiens, UniProt P14867+P28472) | [3H]muscimol binding | – | alpha1beta3 receptor | – | maximal inhibition | 114% |
| CCn1c(SCC(=O)Nc2ccc(C(C)C)cc2)nnc1-c1ccnc(F)c1 | Orco | calcium mobilization, agonist | HEK293 expressing Drosophila Orco | – | baseline: VUAA1 | efficacy | 148% |

| Compound | target | assay | test system | conditions | scale | endpoint | result |
| --- | --- | --- | --- | --- | --- | --- | --- |
| COC(=O)[C@@]1(C)C=C(C(=O)Nc2ccc(C)c(C(=O)Nc3ccc(Nc4nccc(-c5cccnc5)n4)cc3)c2)C(=O)CC1 | MAPK8 | kinase activity, inhibitor | – | 0.1829 µM, unit not given, added: 10 mM GSH | baseline: DMSO | remaining activity | 0.13 |
| CC(C)c1ccc(NC(=O)CSc2nnc(-c3ccncc3)n2C2CCCC2)cc1 | Orco | calcium mobilization, agonist | HEK293 expressing Drosophila Orco | – | baseline: VUAA1 | efficacy | 13% |
| CS(=O)(=O)CCCn1c(Cn2c(=O)n(C3CC3)c3ccncc32)nc2cc(Br)ccc21 | Fusion glycoprotein F0, prefusion DS-Cav1 (Human respiratory syncytial virus A, UniProt P03420, I379V/M447V/S155C/S190F/S290C/V207L) | isothermal titration calorimetry | respiratory syncytial virus A2, PBS with 1% DMSO | concentration not given, 25 °C | – | binding enthalpy (ΔH) | -20 kcal/mol |
| CC(=O)NCCCC[C@H](NC(=O)CNC(=O)[C@H](CCCNC(=N)N)NC(C)=O)C(=O)N[C@@H](Cc1c[nH]c2ccccc12)C(N)=O | HDAC8 | deacetylation, substrate | – | 25 °C, added: 150 nM enzyme | – | kcat/KM | 15 ± 4 M⁻¹ s⁻¹ |
| O=C(NCc1cc(Br)cc(Br)c1OC(=O)c1ccccc1[N+](=O)[O-])c1ccccc1[N+](=O)[O-] | lasR | thermal stability, differential scanning fluorimetry | – | – | – | melting temperature | 69.3 ± 0.3 °C |
| CC(=O)N[C@H](C(=O)N[C@@H](Cc1ccccc1)C(=O)N[C@@H](CC(=O)O)C(=O)N[C@@H](CCC(N)=O)C(=O)N[C@@H](Cc1cc(=O)oc2cc(OP(=O)(O)O)ccc12)C(=O)N[C@@H](Cc1c[nH]cn1)C(=O)N[C@@H](CCC(=O)O)C(=O)N[C@@H](CO)C(=O)N1CCC[C@H]1C(N)=O)C(C)C | Tyrosine-protein phosphatase non-receptor type 2 (PTPN2, Homo sapiens, UniProt P17706) | peptide hydrolysis, substrate | – | – | – | kcat | 11.5 ± 0.5 s⁻¹ |
| CC(=O)NCCCC[C@H](NC(=O)CNC(=O)[C@H](CCCNC(=N)N)NC(C)=O)C(N)=O | HDAC6 | deacetylation, substrate | – | 25 °C, added: 10 to 50 nM enzyme | – | kcat | 0.32 ± 0.06 s⁻¹ |
| Nc1cc(S(=O)(=O)O)cc2cc(S(=O)(=O)O)cc(O)c12 | OXA-58 | enzyme activity, inhibitor | – | – | – | ligand efficiency | 0.31 |
| COc1ccccc1C(=O)Oc1c(Br)cc(Br)cc1CNC(=O)c1ccccc1[N+](=O)[O-] | lasR | reporter gene, agonist | Escherichia coli JLD271 lasI-lacZ reporter | – | baseline: OdDHL | maximum efficacy | 94% |
| COC(=O)[C@@H](CS)N1C(=O)c2ccc(N(C)C)cc2C1=O | Metallo-beta-lactamase type 2 (blaNDM-1, Klebsiella pneumoniae, UniProt C7C422, A233V/M154L) | probe | – | 10 µM, NDM-15 variant, probe:enzyme 1:3, added: ZnSO4 10 µM | baseline: probe alone | fluorescence increase | 17 fold |
| CO[P@@]1(=O)OC[C@H]2COC(=O)C2=C(C)O1 (relative stereo) | Acetylcholinesterase (ACHE, Homo sapiens, UniProt P22303) | enzyme activity, inhibitor | – | – | – | k-2 | 0 min⁻¹ |
| C#CCCCN1C(=O)[C@@]2(CN2[S@@+]([O-])C(C)(C)C)c2ccccc21 (some centres unmarked) | Myc proto-oncogene protein (MYC, Homo sapiens, UniProt P01106) | thermal stability, CETSA | PSN1 | 50 µM, 4 h | – | melting temperature | 45.4 °C |
| COc1cccc(C(=O)c2n[nH]c3ccccc23)c1 | Aryl hydrocarbon receptor (AHR, Homo sapiens, UniProt P35869) | reporter gene, agonist | – | – | baseline: ITE | Emax | 87 ± 6% |
| COC(=O)[C@@]1(C)C=C(C(=O)Nc2cc(C(=O)Nc3ccc(Nc4nccc(-c5cccnc5)n4)cc3)ccc2C)C(=O)CC1 | MAPK8 | kinase activity, inhibitor | – | 0.5487 µM, unit not given, added: 10 mM GSH | baseline: DMSO | remaining activity | 0.101 |
| COc1cc(C(=O)N[C@@H]2CC[C@@]3(O)[C@H]4Cc5ccc(O)c6c5[C@@]3(CCN4CC3CC3)[C@H]2O6)ccn1 | Kappa-type opioid receptor (Oprk1, Mus musculus, UniProt P33534) | radioligand binding | CHO cell membranes | added: [3H]diprenorphine | baseline: Ki mu receptor over Ki kappa receptor | selectivity ratio | 1.3 |
| C[C@@H]1CN(C)CCN1c1nc(-c2ccc(F)cc2)cs1 | Sodium-dependent serotonin transporter (Slc6a4, Rattus norvegicus, UniProt P31652) | efflux of preloaded [3H]5-HT, releaser, [3H]5-HT efflux | – | 10 µM, added: preloaded with [3H]5-HT 20 µM | – | serotonin efflux | 1.8 ± 0.6 fmol/min |
| CC1(C)SCN(C(=O)[C@@H](O)[C@H](Cc2ccccc2)NC(=O)COc2ccccc2)[C@@H]1C(=O)N[C@H]1c2ccccc2C[C@H]1O | Gag-Pol polyprotein, protease (gag-pol, Human immunodeficiency virus type 1 group M subtype B, UniProt P04585, L521I/L551I/Q495K) | isothermal titration calorimetry | – | concentration not given, pH 5.0, 25 °C, 2% DMSO | – | -TΔS of binding | -6.328 ± 0.033 kcal/mol |

Excerpt of the above:
| Compound | target | assay | test system | conditions | scale | endpoint | result |
| --- | --- | --- | --- | --- | --- | --- | --- |
| CC(=O)NCCCC[C@H](NC(=O)[C@H](CCCCNC(C)=O)NC(=O)[C@H](Cc1c[nH]cn1)NC(=O)[C@H](CCCNC(=N)N)NC(C)=O)C(N)=O | HDAC6 | deacetylation, substrate | – | 25 °C, added: 10 to 50 nM enzyme | – | kcat | 0.23 ± 0.03 s⁻¹ |
| COc1cc(C(=O)N[C@@H]2CC[C@@]3(O)[C@H]4Cc5ccc(O)c6c5[C@@]3(CCN4CC3CC3)[C@H]2O6)ccn1 | Kappa-type opioid receptor (Oprk1, Mus musculus, UniProt P33534) | radioligand binding | CHO cell membranes | added: [3H]diprenorphine | baseline: Ki mu receptor over Ki kappa receptor | selectivity ratio | 1.3 |
| COc1ccc2c(c1)c(CC(=O)NCCCCNC(=O)CCC(=O)OC1c3cc4c(cc3C(c3cc(OC)c(OC)c(OC)c3)C3C(=O)OCC13)OCO4)c(C)n2C(=O)c1ccc(Cl)cc1 (centres unmarked) | Prostaglandin G/H synthase 2 (Ptgs2, Mus musculus, UniProt Q05769, R106Q) | enzyme activity, inhibitor | – | – | baseline: mutant R120Q over wild type | potency increase | 3 fold |
| C[C@@H]1CN(C)CCN1c1nc(-c2ccc(F)cc2)cs1 | Sodium-dependent serotonin transporter (Slc6a4, Rattus norvegicus, UniProt P31652) | efflux of preloaded [3H]5-HT, releaser, [3H]5-HT efflux | – | 10 µM, added: preloaded with [3H]5-HT 20 µM | – | serotonin efflux | 1.8 ± 0.6 fmol/min |
